Experimental data gathered from unrelated publications.
Each numbered part is a random draw from the data of one study; scales do not carry over between parts. Positions count from the first letter of the parent shown.

Set 1 — technique: universal PBM; molecule type: double-stranded DNA, one strand shown; medium: in vitro; concentration: 600 nM; direction: higher = stronger binding
Target: Sal-like protein 4, full length isoform A (SALL4, Homo sapiens, UniProt Q9UJQ4, residues 1-1053)
UniProt Q9UJQ4, sequence (whole entry, looked up): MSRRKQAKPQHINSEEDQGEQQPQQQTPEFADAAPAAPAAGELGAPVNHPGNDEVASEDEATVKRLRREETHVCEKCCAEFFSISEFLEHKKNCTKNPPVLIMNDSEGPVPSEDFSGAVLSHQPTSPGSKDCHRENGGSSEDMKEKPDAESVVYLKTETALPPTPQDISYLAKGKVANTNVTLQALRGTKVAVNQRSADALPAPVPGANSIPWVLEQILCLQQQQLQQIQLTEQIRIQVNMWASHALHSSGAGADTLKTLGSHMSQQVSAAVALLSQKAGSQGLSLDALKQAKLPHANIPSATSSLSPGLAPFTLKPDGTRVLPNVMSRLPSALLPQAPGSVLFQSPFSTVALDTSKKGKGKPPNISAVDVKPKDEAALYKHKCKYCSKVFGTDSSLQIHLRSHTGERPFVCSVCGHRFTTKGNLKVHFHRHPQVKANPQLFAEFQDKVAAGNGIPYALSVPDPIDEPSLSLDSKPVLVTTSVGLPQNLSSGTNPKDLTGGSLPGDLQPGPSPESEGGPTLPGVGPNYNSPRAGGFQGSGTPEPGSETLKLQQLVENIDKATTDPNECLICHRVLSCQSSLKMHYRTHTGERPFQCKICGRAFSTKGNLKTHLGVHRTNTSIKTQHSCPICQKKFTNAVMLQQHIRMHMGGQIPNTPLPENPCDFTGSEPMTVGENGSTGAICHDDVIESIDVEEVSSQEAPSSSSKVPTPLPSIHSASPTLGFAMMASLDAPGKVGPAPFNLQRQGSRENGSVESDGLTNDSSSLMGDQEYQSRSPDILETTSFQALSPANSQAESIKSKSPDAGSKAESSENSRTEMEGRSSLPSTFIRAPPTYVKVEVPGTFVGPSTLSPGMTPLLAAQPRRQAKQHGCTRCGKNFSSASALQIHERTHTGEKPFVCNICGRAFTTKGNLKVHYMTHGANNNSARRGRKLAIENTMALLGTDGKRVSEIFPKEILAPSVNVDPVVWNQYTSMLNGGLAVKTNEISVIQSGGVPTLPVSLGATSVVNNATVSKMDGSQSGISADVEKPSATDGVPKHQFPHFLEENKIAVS
Notes: 8-mer, flanks averaged, mean of replicates
Sequence | E-score
CGAGCGCA | -0.0509
CCGCTTGC | -0.19
GTGGCAAC | -0.109
AGGGCCAT | -0.179
CCAAATGG | -0.0388
CCGGTAGC | -0.402
AACGAGCT | -0.0835
AGAGCACC | -0.349
GCTAATCA | 0.172
GACGTATC | 0.034
ACTCCACA | 0.00728
GGCATACA | 0.0462
GGGGTAAA | 0.0538
GGCTAGAA | -0.0417
CTCTGAAG | -0.117
CAGGACGG | -0.182
CAGTCCGC | -0.15
ACCATTAG | 0.134
GAATAGTC | 0.019
ATTACGCC | 0.0161
ACCCGGGA | -0.301

Set 2 — technique: competition protein-binding microarray; molecule type: double-stranded DNA, one strand shown; medium: in vitro; concentration: 2 µM; added: Cbf1 competitor, 0.05 µM; direction: higher = stronger binding; constant ends, left off below: … GTCTTGATTCGCTTGACGCTGCTG
Target: Phosphate system positive regulatory protein PHO4, full length, GST-tagged (PHO4, Saccharomyces cerevisiae, UniProt P07270, residues 1-312)
Notes: whole 60-bp probe, lowest competitor level
Residues (chain): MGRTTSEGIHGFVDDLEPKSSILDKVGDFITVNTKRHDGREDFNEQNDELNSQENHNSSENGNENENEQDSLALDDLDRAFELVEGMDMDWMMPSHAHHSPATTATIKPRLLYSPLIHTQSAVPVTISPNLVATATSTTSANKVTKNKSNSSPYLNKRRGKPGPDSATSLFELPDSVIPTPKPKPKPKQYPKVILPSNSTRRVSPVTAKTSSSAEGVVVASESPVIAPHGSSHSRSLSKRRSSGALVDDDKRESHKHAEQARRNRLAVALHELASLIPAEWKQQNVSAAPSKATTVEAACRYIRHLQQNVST
Sequence | fluorescence intensity [a.u.]
CATTCAGTGCGTAACGACGCGAATAGGGCTTTGAAA | 3380
AACTCTCGCAGCCGTCACGTGCAAATTGATACAAGT | 15600
TCGGACTAGACGCTGGGCGTGCATCGCCAGTGAAAA | 6570
TACGAGCAAATTTTGCACGTATAGGGCGCCTATAAC | 4490
CATACCCAACCTTGACCAGTGGGTGAAGATATTTGT | 3550
AACTTCGAAATTGGGAGCGTGGGACCAGAAACTTCC | 8160
CGTCCTAGTGATTGTACGGTGGGTGCCATGAGGAAG | 7630
ATTCTATTGCAGAATGTTGTGATATTTCCAAGGTCT | 4450
AGAGCACTACAACAAGGCGTGGGTACTGCATAAAGA | 8440
AAAGCGGTAATTTGTCACCGCACTTCACATATCTAT | 4200
ACCTAGAAGAAGCCACTCGGGCACTAACTCGCCAGG | 4070
GCCGCCGCTTCTCCACACGTGCACTCGGGTCTCTCG | 17600
AATTTAAGCCTTGGCAACGTGTTGAACCAAGTCGAC | 11900
CTAACGAAGGTTTGTCACTCCACTTACAAGCCAAGT | 4070
GTCTCTGCTTTTCCACACGTGGAAGTTCACCAAGAA | 13700
CATACCCAACCTTTTCACGTGGCGTAAGATATTTGT | 14500
AGGTTACCGCCATCTCACCTGCAGCTTGGATCCTGA | 2720
CTTTCCCGATCTTTTCACGTGCAATTAGCACATTTG | 13300
CGTCCTAGTGATTGCTGTGTGGGTGCCATGAGGAAG | 8160
CAGTTCATTTACTTCCACGTGTAGATGTGAAGGAAT | 17300
ATTGCTTAGCACCGTCACGTCTTTCGTTGGCTGTCA | 5400
CTTGTTATGTGGGAGCCCGTGAGAGGCTTGAAGTGG | 6810
CTTCTGTAAATTTGTTATGTGGGTGGACGCGCCCCG | 4610
CTTCTGTAAATTTGGGTCGTGGGTGGACGCGCCCCG | 8680
AAATTACTAAGTTGCGCCGTGGGTGACGCCGTATGA | 5300

Set 3 — target: CCNB3, cyclin fold, Cln2 fusion (human); technique: yeast growth competition, sequencing; medium: yeast; notes: weak parent motif; relative to: not given; direction: higher = stronger binding
Starting sequence: GMNC docking peptide (human); KNAKRNLSSEFAN; partner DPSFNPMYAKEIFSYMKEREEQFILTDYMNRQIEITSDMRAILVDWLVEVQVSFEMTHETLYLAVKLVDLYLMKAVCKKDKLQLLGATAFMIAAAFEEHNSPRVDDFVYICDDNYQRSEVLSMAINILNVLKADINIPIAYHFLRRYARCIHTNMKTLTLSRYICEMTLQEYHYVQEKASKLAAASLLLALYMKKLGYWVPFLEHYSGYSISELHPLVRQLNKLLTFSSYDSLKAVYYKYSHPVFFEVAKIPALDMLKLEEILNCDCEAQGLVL
Change | normalised enrichment score
F11I | -0.0343
E10G | 0.599
A12N | 0.257
N2M | 0.263
S9D | 0.502
S8N | 0.514
S8E | -0.0476
A12D | 0.285
F11G | -0.0103
A3K | 0.278
N6K | 0.105
S8C | -0.158

Set 4 — technique: RNA Bind-n-Seq; molecule type: RNA; medium: in vitro; concentration: 365 nM; relative to: no-protein control; direction: higher = stronger binding
Target: RNA binding protein fox-1 homolog 2, RRM domain, GST-SBP tag (RBFOX2, Homo sapiens, UniProt O43251-10, residues 100-194)
Notes: natural RNA segment, single round, ends assumed
Constant ends, left off below: GGGAGUUCUACAGUCCGACGAUC … UGGAAUUCUCGGGUGCCAA
Target sequence (chain): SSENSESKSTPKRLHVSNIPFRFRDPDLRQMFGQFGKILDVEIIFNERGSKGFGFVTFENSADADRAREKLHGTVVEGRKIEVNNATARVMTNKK
Sequence | RBNS enrichment (R)
UGUUGAAGCUAGAGGCGGCUAGAGCAACCCUGGCUGGUAGAGGCCUGGCACACCCUAGUAGCCGGGUCUGGCCAGGCAGCGCCGCAUGGCUCUGAACAGCAACUCUGUCC | 0.329
AAUCUUCAUUUGACACCUUAAUACAUUUCUGACUGUUCUUAAAACAGUGGGGAUGCCUAUAUUUUCCUUGAGUUUUUGUGACUGACUUUGGCUAUAUAUACCUUUCUGGG | 0.455
AUUUUACUUUUUUGUAUACAUAUGUGUAACUUACACUGUUAUUAAUUCAACGGAUAUAUAUUUAUCAAUGUAGACUUCUCUGUGAAGUCAAGGUUUAUUUUCACAUGAGU | 0.675
AGAGGGGGCCUUGGCCACCAACAGUUCCAAACCAGGUCAGCUGUUAGCCGUCUCAUUGGCCAGUGGCAGCAUGGGCAGUGCCCAUUGCCCACAGAACGGUGGAGAGAGGG | 0.351
UGCAUAAUUAGUUAGAAAGGAUGUAUACCAUGCUGAAACCAUUCUGUUGCUAUUUAGGACCAAAACAUUUUCAGACAGUAGGUAGGCUUUUACAUUCCCUUGCUCCGUUA | 0.374
AAGUGAAAAAGAAGAAAUAGAGAAUUCCAGCAGAAUUCAGUGGUUGUCUACUAUCCAUACUUCUUAUCACUUUAGUUUUUCAUCAGUCAAUAAAAUUAAUUUACUCUUCC | 0.606
UGUGUGAUUUUUUUUUUAAAUUUAUGUUGCGGAAAGGUAACCACAAAGUUAUGAUGAACUGCAAACAUCCAAAGGAUGUGAGAGUUUUUCUAUGUAUAAUGUUUUAUACA | 0.325
UGCUGUUUUUUGUUUUUUAAGGUGAGUUCUCACUAUGUUUCUCAGACUGGUCUCGAACUCCUGGCCUCAAGCCAUCUUCCCGCCUCAGCCUCUCAAAUAGCUGGGCUUAC | 0.775
AUUGCUAUUUUCACGUAGGCCCUUGUCCUUGGAUACCCAGGGGAGGGAGCCACUGUCGCCGCAGCACACCAGGAUUGGGGCUCUCAGGCUGUGCUGCCCUAGACCCGCCA | 0.336
CAGGCAGUUUAGUCCAUAGUAGUACUAUUUUGAUGAUAUUUUCCAUUAACAAAAUGUAAUUUCAGAUUAUUCGUUUAUAGGCUUUAUAAUUUUAUGGUUUUUUUUUAAAA | 0.957
UGGUGCCAGAAGGCCUCAUCCUACAUCCUGCUCUCCUGGAUUGUUAAGACUAUAAAGUACUACUGUAGGAUUGCAAUUUCCAUUCUUUUAAAUGGGUUAAAAAGAUGUUA | 0.435
UGUGUGUGUAGUUUUAAUUAUGCUGCAAUGUAUAAUCUGGUGUGUUAUUUAAACAGCACUAGUACUGUACACUGGUUUUCCCUUGUGUUUGCUGUUGCACACUGAUUGCU | 0.553

Set 5 — target: ATF7, bZIP domain (human); technique: DHFR protein complementation; medium: yeast; relative to: wild-type JUN-FOS pair; direction: higher = stronger binding
Notes: single substitutions, most at no-binding floor
Starting sequence: JUN, bZIP domain (human); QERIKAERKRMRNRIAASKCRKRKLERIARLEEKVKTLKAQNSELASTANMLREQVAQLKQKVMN; partner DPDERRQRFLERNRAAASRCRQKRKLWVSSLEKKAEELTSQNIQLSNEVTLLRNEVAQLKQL
Change | binding fitness [natural log]
E44I | -1.07
A40S | -1.02
S43K | -0.772
T37W | -0.858
R30Y | -0.956
A46S | -0.964
E54N | -0.926
K39H | -1.05
Q58S | -0.895

Set 6 — technique: DHFR PCA, deep sequencing; medium: yeast; added: (+)-ABA 0.0091 µM; relative to: wild-type fitted maximum; direction: higher = stronger binding
Target: ABI1, truncated, D143A, DHFR fusion (Arabidopsis thaliana)
Notes: methotrexate growth selection, single substitutions
Starting sequence: PYL1, truncated, DHFR fusion (Arabidopsis thaliana); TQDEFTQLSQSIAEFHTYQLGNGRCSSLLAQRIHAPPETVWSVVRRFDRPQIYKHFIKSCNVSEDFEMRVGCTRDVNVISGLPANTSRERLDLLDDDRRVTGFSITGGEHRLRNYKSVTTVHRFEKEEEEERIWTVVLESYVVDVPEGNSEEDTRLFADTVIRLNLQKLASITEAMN; partner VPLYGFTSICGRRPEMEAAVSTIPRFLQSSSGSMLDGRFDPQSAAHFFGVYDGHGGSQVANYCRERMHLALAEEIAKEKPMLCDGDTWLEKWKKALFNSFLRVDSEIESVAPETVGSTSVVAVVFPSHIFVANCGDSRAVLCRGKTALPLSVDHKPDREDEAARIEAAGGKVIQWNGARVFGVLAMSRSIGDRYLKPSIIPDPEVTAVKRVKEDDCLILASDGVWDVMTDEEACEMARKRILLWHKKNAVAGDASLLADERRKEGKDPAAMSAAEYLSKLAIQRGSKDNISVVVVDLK
Change | relative binding score
L8N | 2.21%
V143L | -1.59%
V121L | 0.546%
E128A | 41.2%
Q7A | 35.6%
D65L | 1.64%
H110A | 39%
V44G | -1.28%
N114W | -2.85%
F103P | -4.4%
F5E | 3.16%
R99C | 11.7%
R49Y | -7.17%
P50C | 0.539%

Repeated from above (set 1):
Sequence | E-score
CCGGTAGC | -0.402
AACGAGCT | -0.0835
AGAGCACC | -0.349
GCTAATCA | 0.172
GACGTATC | 0.034
ACTCCACA | 0.00728
GGCATACA | 0.0462
GGGGTAAA | 0.0538
GGCTAGAA | -0.0417
CTCTGAAG | -0.117
CAGGACGG | -0.182
CAGTCCGC | -0.15
ACCATTAG | 0.134
